Published values gathered from unrelated publications.
Compare with care: the assays were run in different laboratories. Values joined by “and” are separate records of one study, mostly repeats; a detail may differ.
Target: Activated CDC42 kinase 1 (TNK2, Homo sapiens, UniProt Q07912)

SMILES | test | system | conditions | how to read | quantity | value
CN1CC[C@@H](COc2cnc(C#N)cc2-c2ccn3nc(NC(=O)C4CC4)cc3c2)C1 | enzyme activity, inhibitor |  | 1 µM |  | inhibition | 63%
C=CC(=O)N1CCc2ccc(-n3c(=O)ccc4cnc5ccc(-c6cnn(C)c6)cc5c43)cc21 | KINOMEscan |  | 1 µM | relative to: DMSO control | remaining binding | 100%
Cc1cnc2nc1Nc1cccc(c1)COC/C=C/COCc1cc(ccc1OCCN1CCOCC1)N2 | binding, competition with immobilised ligand |  | 0.1 µM |  | remaining binding | 36%
N[C@H]1CC[C@H](Nc2nccc(-c3cccnc3Oc3ccc(NC(=O)NC4CC4)c4ccccc34)n2)CC1 | kinobead competition pulldown | HEK293/HCT116 lysate mixture | 10 µM, 1 h, 4 °C | lower = stronger competition | log2 LFQ intensity | 24.3 and 24.1 and 23.9
C=CC(=O)Nc1cccc(-c2cnc3[nH]cc(C(=O)NC(C)(C)C)c3n2)c1 | enzyme activity, inhibitor |  | 0.1 µM |  | inhibition | 3%
CCN1CCN(Cc2ccc(NC(=O)c3ccc(C)c(NC(=O)c4cncc(-c5cccs5)c4)c3)cc2C(F)(F)F)CC1 | binding, competition with immobilised ligand |  | 1 µM |  | remaining binding | 30%
CN1CCN(Cc2ccc(-c3ccc(CO[C@H]4CCC[C@@H]4NC(=O)c4cc(-c5cnn(C)c5)cnc4N)cc3)cc2)CC1 | enzyme activity, inhibitor |  | 0.1 µM |  | inhibition | 6%
COc1cc(Nc2nccc(-c3cnn4nc(OC)ccc34)n2)cc(C(F)(F)F)c1 | binding, competition with immobilised ligand |  | 1 µM |  | remaining binding | 88%
CNC1C[S+]2CC[S+]3CC[S+](C1)[Ru-4]321([N]=C=S)[n]2c3ccc(OC)cc3c3c4c(c5cc(F)c[n+]1c5c32)C(=O)NC4=O (stereo not shown) | KinomeScan |  | 0.1 µM | relative to: untreated | remaining binding | 100%
Cc1ccc(C(=O)Nc2ccc(CN3CCN(C)CC3)c(C(F)(F)F)c2)cc1C#Cc1cnc2cccnn12 | target engagement, NanoBRET | human cells |  |  | Hill slope | 1.77
COc1ccc(NC(=O)Nc2ccc3c(c2)C(=O)N(C(C)CO)CC(C)C(CN(C)Cc2ccc4c(c2)OCO4)O3)cc1 (stereo not shown) | kinase activity, KinaseProfiler |  | 0.03 µM, species human | relative to: control | remaining activity | 99%
COC(=O)[C@@]1(C)C=C(C(=O)Nc2cccc(C(=O)Nc3ccc(Nc4nccc(-c5cccnc5)n4)c(C)c3)c2)C(=O)CC1 | binding, competition with immobilised ligand |  | 1 µM |  | remaining binding | 95%
C=CC(=O)N1Cc2nc(-c3cc(-c4cc(Cl)cnc4Cl)c(F)cc3F)n(-c3ccncn3)c2C1 | cell-free assay, inhibitor |  | 1 µM |  | inhibition | 0.7%
COCC12C(=O)NC3C4(C(OC)CC1O)C1CC5(O)C(OC)C(O)C(OC(C)=O)(C1C5OC(=O)c1ccccc1)C3(O)C(OC)C24 (stereo not shown) | kinase activity, inhibitor, ProQinase kinase profiling |  | 25 µM | relative to: control | remaining activity | 117% and 119%
Cc1cccc(O[C@H]2CCC[C@@H](C(C)CNCc3ccncc3)C2)c1 (relative stereo) | enzyme activity, inhibitor |  | 1 µM |  | inhibition | 2%
COc1c(OCCCN2CCOCC2)ccc2c1N=C(NC(=O)c1cnc(N)nc1)N1CCN=C21 | kinase activity, inhibitor |  | 1 µM | relative to: untreated control | remaining activity | 141%
NC(=O)C[C@H]1CCc2sc3ncnc(O[C@H]4CC[C@H](N5CCOCC5)CC4)c3c21 | enzyme activity, inhibitor |  | 10 µM |  | inhibition | 11%
Nc1ncc2c(n1)-c1c([nH]c3ccc(C4=CCOCC4)cc13)CCC2 | binding, competition with immobilised ligand |  | 1 µM |  | remaining binding | 100%
CCn1cc(C(=O)O)c(=O)c2c(N)c(F)c(NC3CCCCC3)cc21 | kinase activity |  | 0.1 µM, together with: ATP at Km |  | inhibition | 4.9%

A few entries again:
SMILES | test | system | conditions | how to read | quantity | value
COC(=O)[C@@]1(C)C=C(C(=O)Nc2cccc(C(=O)Nc3ccc(Nc4nccc(-c5cccnc5)n4)c(C)c3)c2)C(=O)CC1 | binding, competition with immobilised ligand |  | 1 µM |  | remaining binding | 95%
CCn1cc(C(=O)O)c(=O)c2c(N)c(F)c(NC3CCCCC3)cc21 | kinase activity |  | 0.1 µM, together with: ATP at Km |  | inhibition | 4.9%
